Results gathered from unrelated publications.
Each line is one published result; not all experiments were run side by side. ± gives the spread as reported.
MDM2: E3 ubiquitin-protein ligase Mdm2 (MDM2, Homo sapiens, UniProt Q00987)
Chain of UniProt Q00987 (whole entry, unmodified, looked up): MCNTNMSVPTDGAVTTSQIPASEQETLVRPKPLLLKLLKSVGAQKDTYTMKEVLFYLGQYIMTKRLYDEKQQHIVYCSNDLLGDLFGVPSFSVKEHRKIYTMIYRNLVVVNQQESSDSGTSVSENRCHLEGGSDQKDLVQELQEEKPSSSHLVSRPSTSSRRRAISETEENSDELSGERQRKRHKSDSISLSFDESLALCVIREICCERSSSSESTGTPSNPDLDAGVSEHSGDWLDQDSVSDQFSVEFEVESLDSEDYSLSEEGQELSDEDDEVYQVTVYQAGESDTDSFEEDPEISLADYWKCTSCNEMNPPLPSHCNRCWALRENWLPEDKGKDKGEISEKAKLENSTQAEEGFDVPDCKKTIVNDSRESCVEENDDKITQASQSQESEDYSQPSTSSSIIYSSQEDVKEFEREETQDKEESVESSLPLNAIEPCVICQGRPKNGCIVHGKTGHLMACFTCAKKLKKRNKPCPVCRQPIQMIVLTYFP
MDM2 N-terminal domain 17-125: E3 ubiquitin-protein ligase Mdm2, N-terminal domain 17-125 (MDM2, Homo sapiens, UniProt Q00987)

CC(C)Oc1cc(C(=O)NCC(=O)O)ccc1NC(=O)[C@H](Cc1ccccc1)NC(=O)c1ccc(N)cc1OCc1ccccc1  IC50 (E3 ubiquitin-protein ligase Mdm2, L33E; with p53 (MDM2, Homo sapiens, UniProt Q00987, L33E); fluorescence anisotropy competition; pH 7.5): 62.3 ± 5.6 µM
CC(=O)N[C@@H](CC(C)C)C(=O)N[C@H](C(=O)N[C@@H](Cc1ccccc1)C(=O)N[C@H]1CSCc2ccc(cc2)CSC[C@@H](C(=O)N[C@@H](CCC(N)=O)C(=O)N[C@@H](CC(C)C)C(=O)N[C@H](C(=O)N[C@@H](CO)C(N)=O)[C@@H](C)O)NC(=O)[C@H](Cc2c[nH]c3ccccc23)NC(=O)[C@H](Cc2ccc(O)cc2)NC(=O)[C@H](CCC(=O)O)NC1=O)[C@@H](C)O  IC50 (MDM2; ligand displacement, FP): 0.046 µM
CC(=O)N(Cc1ccc(Cl)cc1)[C@@H](C)C(=O)N(C)[C@@H](C)C(=O)N(Cc1c[nH]c2ccccc12)[C@@H](C)C(=O)N(C)[C@@H](C)C(=O)N(CCC(C)C)[C@@H](C)C(N)=O  Ki (MDM2; ligand displacement, FP): 22.3 µM
CCOC(=O)[C@H]1Cc2c(cc([N+](=O)[O-])cc2[N+](=O)[O-])[C@@H](O)[C@@]12C(=O)Nc1ccccc12  IC50 (MDM2): 0.82 ± 0.1 µM
CC(=O)N(Cc1ccccc1)[C@@H](C)C(=O)N(C)[C@@H](C)C(=O)N(Cc1c[nH]c2ccccc12)[C@@H](C)C(=O)N(C)[C@@H](C)C(=O)N(CC1CCCCC1)[C@@H](C)C(N)=O  Ki (MDM2; ligand displacement, FP): 23.8 µM
CC(=O)N(CC(=O)N(C)CC(=O)N(CC(=O)N(C)CC(=O)N(CCC(C)(C)C)CC(=O)N(C)CC(=O)N(C)CC(=O)N(C)CC(=O)NCCNC(=O)c1ccc2c(c1)C(=O)OC21c2ccc(O)cc2Oc2cc(O)ccc21)Cc1c[nH]c2cc(Cl)ccc12)Cc1ccccc1  Kd (MDM2 N-terminal domain 17-125; binding, fluorescence anisotropy; 25 °C, fluorescein-labelled peptoid, 10 nM): 21 µM
CC(=O)N[C@@H](CC(C)C)C(=O)N[C@H](C(=O)N[C@@H](Cc1ccccc1)C(=O)N[C@H]1CSCCCCCCCCSC[C@@H](C(=O)N[C@@H](CO)C(N)=O)NC(=O)[C@H](CC(C)C)NC(=O)[C@H](CCC(N)=O)NC(=O)[C@H](C)NC(=O)[C@H](Cc2c[nH]c3ccccc23)NC(=O)[C@H](Cc2ccc(O)cc2)NC(=O)[C@H](CCC(=O)O)NC1=O)[C@@H](C)O  IC50 (MDM2; ligand displacement, FP): 0.0407 µM
CC(=O)N(Cc1ccccc1)[C@@H](C)C(=O)N(C)CC(=O)N(Cc1c[nH]c2cc(Cl)ccc12)[C@@H](C)C(=O)N(C)CC(=O)N(CCC(C)(C)C)[C@@H](C)C(=O)N(C)CC(=O)N(C)CC(=O)N(C)CC(=O)NCCNC(=O)c1ccc2c(c1)C(=O)OC21c2ccc(O)cc2Oc2cc(O)ccc21  Kd (MDM2 N-terminal domain 17-125; binding, fluorescence anisotropy; 25 °C, fluorescein-labelled peptoid, 10 nM): 0.75 µM
CC(=O)N[C@@H](CC(C)C)C(=O)N[C@H](C(=O)N[C@@H](Cc1ccccc1)C(=O)N[C@@]1(C)CCCC=CCCC[C@@](C)(C(=O)N[C@@H](CCC(N)=O)C(=O)N[C@@H](CC(C)C)C(=O)N[C@H](C(=O)N[C@@H](CO)C(N)=O)[C@@H](C)O)NC(=O)[C@H](Cc2c[nH]c3ccccc23)NC(=O)[C@H](Cc2ccc(O)cc2)NC(=O)[C@H](CCC(=O)O)NC1=O)[C@@H](C)O  Ki (MDM2; ligand displacement, FP): 0.0107 µM
CC(=O)N[C@@H](CC(C)C)C(=O)N[C@H](C(=O)N[C@@H](Cc1ccccc1)C(=O)N[C@H]1CCCCNC(=O)C[C@@H](C(=O)N[C@@H](CCC(N)=O)C(=O)N[C@@H](CC(C)C)C(=O)N[C@H](C(=O)N[C@@H](CO)C(N)=O)[C@@H](C)O)NC(=O)[C@H](Cc2c[nH]c3ccccc23)NC(=O)[C@H](Cc2ccc(O)cc2)NC(=O)[C@H](CCC(=O)O)NC1=O)[C@@H](C)O  IC50 (MDM2; ligand displacement, FP): 0.007 µM
CC(=O)N(Cc1ccccc1)[C@@H](C)C(=O)N(C)[C@@H](C)C(=O)N(Cc1c[nH]c2ccc(Cl)cc12)[C@@H](C)C(=O)N(C)[C@@H](C)C(=O)N(CCC(C)C)[C@@H](C)C(N)=O  Ki (MDM2; ligand displacement, FP): 2.7 µM

A few entries again:
CC(=O)N(CC(=O)N(C)CC(=O)N(CC(=O)N(C)CC(=O)N(CCC(C)(C)C)CC(=O)N(C)CC(=O)N(C)CC(=O)N(C)CC(=O)NCCNC(=O)c1ccc2c(c1)C(=O)OC21c2ccc(O)cc2Oc2cc(O)ccc21)Cc1c[nH]c2cc(Cl)ccc12)Cc1ccccc1  Kd (MDM2 N-terminal domain 17-125; binding, fluorescence anisotropy; 25 °C, fluorescein-labelled peptoid, 10 nM): 21 µM
CC(=O)N[C@@H](CC(C)C)C(=O)N[C@H](C(=O)N[C@@H](Cc1ccccc1)C(=O)N[C@H]1CSCc2ccc(cc2)CSC[C@@H](C(=O)N[C@@H](CCC(N)=O)C(=O)N[C@@H](CC(C)C)C(=O)N[C@H](C(=O)N[C@@H](CO)C(N)=O)[C@@H](C)O)NC(=O)[C@H](Cc2c[nH]c3ccccc23)NC(=O)[C@H](Cc2ccc(O)cc2)NC(=O)[C@H](CCC(=O)O)NC1=O)[C@@H](C)O  IC50 (MDM2; ligand displacement, FP): 0.046 µM
